{"data": "Assay results pooled from the literature", "note": "Lines come from different studies, so protocols differ. ± marks the error that the study gave.", "UniProt P11387, sequence (whole entry, looked up)": "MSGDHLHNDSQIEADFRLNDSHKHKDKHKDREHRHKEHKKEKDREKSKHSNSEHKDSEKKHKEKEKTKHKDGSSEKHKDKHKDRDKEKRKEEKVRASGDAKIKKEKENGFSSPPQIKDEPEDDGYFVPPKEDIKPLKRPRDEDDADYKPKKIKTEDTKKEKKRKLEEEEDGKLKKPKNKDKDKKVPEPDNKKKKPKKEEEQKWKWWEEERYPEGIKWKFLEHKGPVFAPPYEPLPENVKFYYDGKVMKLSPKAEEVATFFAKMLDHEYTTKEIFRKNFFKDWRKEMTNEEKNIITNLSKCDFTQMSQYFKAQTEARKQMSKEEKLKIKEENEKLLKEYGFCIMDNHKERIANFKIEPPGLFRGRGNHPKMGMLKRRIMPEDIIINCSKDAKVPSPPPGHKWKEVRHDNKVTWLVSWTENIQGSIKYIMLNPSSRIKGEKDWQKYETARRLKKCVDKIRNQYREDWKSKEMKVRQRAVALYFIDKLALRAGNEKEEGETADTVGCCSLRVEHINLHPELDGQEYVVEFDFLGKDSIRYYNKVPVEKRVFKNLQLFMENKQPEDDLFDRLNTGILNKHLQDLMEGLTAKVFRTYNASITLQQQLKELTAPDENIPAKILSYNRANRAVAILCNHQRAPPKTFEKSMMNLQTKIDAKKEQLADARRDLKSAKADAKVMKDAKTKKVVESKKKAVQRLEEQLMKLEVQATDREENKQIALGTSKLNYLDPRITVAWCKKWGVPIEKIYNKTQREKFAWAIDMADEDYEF", "UniProt P09651, sequence (whole entry, unmodified, looked up)": "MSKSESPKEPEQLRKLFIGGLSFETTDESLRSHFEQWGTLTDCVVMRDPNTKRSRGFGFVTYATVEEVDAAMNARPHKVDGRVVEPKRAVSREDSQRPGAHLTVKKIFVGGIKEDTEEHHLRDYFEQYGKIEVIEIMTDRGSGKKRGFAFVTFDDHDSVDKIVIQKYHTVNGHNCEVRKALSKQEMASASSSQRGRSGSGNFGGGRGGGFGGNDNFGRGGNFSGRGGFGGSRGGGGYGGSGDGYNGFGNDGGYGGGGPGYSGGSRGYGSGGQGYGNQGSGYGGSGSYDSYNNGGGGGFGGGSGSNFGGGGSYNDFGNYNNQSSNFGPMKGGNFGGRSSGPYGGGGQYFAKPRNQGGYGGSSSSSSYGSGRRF", "UniProt P41765, sequence (whole entry, looked up)": "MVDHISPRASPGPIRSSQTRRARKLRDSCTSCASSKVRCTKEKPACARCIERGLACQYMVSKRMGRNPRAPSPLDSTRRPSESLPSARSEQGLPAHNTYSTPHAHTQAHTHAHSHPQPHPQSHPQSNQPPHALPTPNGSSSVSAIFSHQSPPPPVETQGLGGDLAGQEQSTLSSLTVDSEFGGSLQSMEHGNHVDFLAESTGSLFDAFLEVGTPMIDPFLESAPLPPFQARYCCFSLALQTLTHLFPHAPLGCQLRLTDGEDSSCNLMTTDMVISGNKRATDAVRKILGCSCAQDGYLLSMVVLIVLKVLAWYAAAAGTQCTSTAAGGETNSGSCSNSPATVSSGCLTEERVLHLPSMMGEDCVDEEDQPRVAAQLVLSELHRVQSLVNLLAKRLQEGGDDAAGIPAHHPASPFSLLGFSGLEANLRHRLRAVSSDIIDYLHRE"}
{"Molecule": "CC(=O)NCCN(CC(=O)NCCN(CC(=O)NCCN(CC(=O)NCCC(N)=O)C(=O)[C@@H](N)Cc1ccccc1)C(=O)[C@@H](N)CCCNC(=N)N)C(=O)[C@@H](N)CCCNC(=N)N", "tested on": "HIV-1 TAR RNA", "setting": "concentration not given, 25 °C", "measurement": "binding enthalpy ΔH°", "result": "-13 ± 0.263 kcal/mol"}
{"Molecule": "NS(=O)(=O)c1ccc(NC(=O)c2ccccc2SSc2ccccc2C(=O)Nc2ccc(S(N)(=O)=O)cc2)cc1", "tested on": "Gag-Pol polyprotein, integrase residues 1-213 (gag-pol, Human immunodeficiency virus type 1 group M subtype B, UniProt P04585)", "assay": "DNA binding, fluorescence anisotropy", "system": "integrase ΔC", "setting": "compound:IN ratio 3:1, with: 10 mM Mg2+, U5 DNA", "measurement": "Hill coefficient", "result": 1.43}
{"Molecule": "C=C1C[C@](OC)([C@H](O)C(=O)NC[C@@H]2C[C@@H](OC)C(C)(C)[C@@H](C[C@@H](COC)OC)O2)O[C@H](C)[C@@H]1C", "tested on": "B16", "assay": "cell viability, sulforhodamine B", "setting": "72 h, 37 °C, with: 100 µM H2O2", "measurement": "IC50", "result": "0.0012 ± 0.0001 µM"}
{"Molecule": "TCAGATATTTCGGTCTCGCAGGAAAGAT (dsDNA)", "tested on": "aflR 15-79 (Aspergillus flavus, UniProt P41765)", "assay": "EMSA", "system": "double-stranded DNA, one strand shown", "measurement": "binding", "result": "no binding"}
{"Molecule": "GGAUCCAUUCGAUUAGUGAACGGAUCC (structured RNA)", "tested on": "HNRNPA1 1-196 C43S/C175S (Homo sapiens, UniProt P09651)", "assay": "ITC", "system": "folded RNA", "measurement": "Kd", "result": "0.0278 ± 0.0005 µM"}
{"Molecule": "O=C(O)c1ccccc1OCc1ccccc1Br", "tested on": "Ras-related C3 botulinum toxin substrate 1 (RAC1, Homo sapiens, UniProt P63000)", "assay": "GTP binding, flow cytometry bead", "setting": "EDTA buffer, with: 100 nM BODIPY-GTP", "measurement": "EC50", "result": "0.151 µM"}
{"Molecule": "CC(=O)NCCN(CC(=O)NCCN(CC(=O)NCCN(CC(=O)NCCC(N)=O)C(=O)[C@@H](N)CCCNC(=N)N)C(=O)[C@@H](N)CCCNC(=N)N)C(=O)[C@@H](N)Cc1ccccc1", "tested on": "HIV-1 TAR RNA", "setting": "concentration not given, 25 °C", "measurement": "binding enthalpy ΔH°", "result": "-14.4 ± 0.43 kcal/mol"}
{"Molecule": "C1=[N+]2CCC[N+]3=Cc4ccc5[n]4[Au-]23[n]2c1ccc2-c1nc2ccccc2nc1-5.F[P-](F)(F)(F)(F)F", "tested on": "DNA topoisomerase 1 (TOP1, Homo sapiens, UniProt P11387)", "assay": "PicoGreen fluorescence", "setting": "0.1 and 1 µM", "measurement": "TOP1 inhibition", "result": "positive"}
{"note": "A few entries again:"}
{"Molecule": "C1=[N+]2CCC[N+]3=Cc4ccc5[n]4[Au-]23[n]2c1ccc2-c1nc2ccccc2nc1-5.F[P-](F)(F)(F)(F)F", "tested on": "DNA topoisomerase 1 (TOP1, Homo sapiens, UniProt P11387)", "assay": "PicoGreen fluorescence", "setting": "0.1 and 1 µM", "measurement": "TOP1 inhibition", "result": "positive"}
